Measurements gathered from unrelated publications.
Values joined by “and” are separate records of one study, mostly repeats; a detail may differ.
U2AF2: U2AF2 148-342 (Homo sapiens, UniProt P26368)
Sequence of UniProt P26368 (whole entry, looked up): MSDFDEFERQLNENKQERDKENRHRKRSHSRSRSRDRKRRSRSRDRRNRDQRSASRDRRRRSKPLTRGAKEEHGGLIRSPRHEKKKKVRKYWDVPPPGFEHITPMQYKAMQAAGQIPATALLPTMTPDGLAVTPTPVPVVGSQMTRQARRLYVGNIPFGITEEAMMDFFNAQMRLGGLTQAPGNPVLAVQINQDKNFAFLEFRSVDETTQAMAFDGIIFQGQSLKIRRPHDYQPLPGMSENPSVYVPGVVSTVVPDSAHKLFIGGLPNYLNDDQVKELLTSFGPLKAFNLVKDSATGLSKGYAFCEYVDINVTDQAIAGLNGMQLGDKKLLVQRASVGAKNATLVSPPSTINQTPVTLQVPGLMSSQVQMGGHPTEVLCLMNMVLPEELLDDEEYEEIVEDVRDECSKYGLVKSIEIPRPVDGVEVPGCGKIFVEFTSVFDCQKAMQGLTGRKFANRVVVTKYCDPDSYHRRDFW
B1: human SFPQ; sequence looked up; chain MSRDRFRSRGGGGGGFHRRGGGGGRGGLHDFRSPPPGMGLNQNRGPMGPGPGQSGPKPPIPPPPPHQQQQQPPPQQPPPQQPPPHQPPPHPQPHQQQQPPPPPQDSSKPVVAQGPGPAPGVGSAPPASSSAPPATPPTSGAPPGSGPGPTPTPPPAVTSAPPGAPPPTPPSSGVPTTPPQAGGPPPPPAAVPGPGPGPKQGPGPGGPKGGKMPGGPKPGGGPGLSTPGGHPKPPHRGGGEPRGGRQHHPPYHQQHHQGPPPGGPGGRSEEKISDSEGFKANLSLLRRPGEKTYTQRCRLFVGNLPADITEDEFKRLFAKYGEPGEVFINKGKGFGFIKLESRALAEIAKAELDDTPMRGRQLRVRFATHAAALSVRNLSPYVSNELLEEAFSQFGPIERAVVIVDDRGRSTGKGIVEFASKPAARKAFERCSEGVFLLTTTPRPVIVEPLEQLDDEDGLPEKLAQKNPMYQKERETPPRFAQHGTFEYEYSQRWKSLDEMEKQQREQVEKNMKDAKDKLESEMEDAYHEHQANLLRQDLMRRQEELRRMEELHNQEMQKRKEMQLRQEEERRRREEEMMIRQREMEEQMRRQREESYSRMGYMDPRERDMRMGGGGAMNMGDPYGSGGQKFPPLGGGGGIGYEANPGVPPATMSGSMMGSDMRTERFGQGGAGPVGGQGPRGMGPGTPAGYGRGREEYEGPNKKPRF
B2: human PABP4; sequence looked up; chain MNAAASSYPMASLYVGDLHSDVTEAMLYEKFSPAGPVLSIRVCRDMITRRSLGYAYVNFQQPADAERALDTMNFDVIKGKPIRIMWSQRDPSLRKSGVGNVFIKNLDKSIDNKALYDTFSAFGNILSCKVVCDENGSKGYAFVHFETQEAADKAIEKMNGMLLNDRKVFVGRFKSRKEREAELGAKAKEFTNVYIKNFGEEVDDESLKELFSQFGKTLSVKVMRDPNGKSKGFGFVSYEKHEDANKAVEEMNGKEISGKIIFVGRAQKKVERQAELKRKFEQLKQERISRYQGVNLYIKNLDDTIDDEKLRKEFSPFGSITSAKVMLEDGRSKGFGFVCFSSPEEATKAVTEMNGRIVGSKPLYVALAQRKEERKAHLTNQYMQRVAGMRALPANAILNQFQPAAGGYFVPAVPQAQGRPPYYTPNQLAQMRPNPRWQQGGRPQGFQGMPSAIRQSGPRPTLRHLAPTGSECPDRLAMDFGGAGAAQQGLTDSCQSGGVPTAVQNLAPRAAVAAAAPRAVAPYKYASSVRSPHPAIQPLQAPQPAVHVQGQEPLTASMLAAAPPQEQKQMLGERLFPLIQTMHSNLAGKITGMLLEIDNSELLHMLESPESLRSKVDEAVAVLQAHHAKKEAAQKVGAVAAATS

For `epoetin alfa`, the mRNA level was 7 fold (UT7/EPO; RT-qPCR, item: CXCL2; concentration not given, 90 min, normalized to HPRT1; reference: vehicle).
`difelikefalin`: “PGIC minimally improved” 22% (Japanese haemodialysis patients with pruritus; intravenous, 0.5 µg/kg, 8 weeks).
For `human glutamate dehydrogenase 2`, “log2 fold change” read -0.81 (CYB5R4 knockout human cells; PP4 interaction, 3xFLAG-PP4C IP-MS; concentration not given; reference: CYB5R4 KO over parental).
For `Peginesatide`, the phosphorylation level was 16.4 fold (UT7/EPO; tyrosine phosphorylation, LC-MS/MS phosphoproteomics, GluC, item: EZR tyrosine 499; 10 nM, 15 min, added: 10 U/mL EPO; reference: vehicle).
The Kd of `AUUUUUCUC (ssRNA)` is reported as 2.78 µM (U2AF2; sequencing of bound RNA; RNA; motif only).
With `NPDALPETLV` the binding intensity was 0.241 (construct, MBP fusion, human SCRIB, PDZ 3-4; automated holdup; peptide, crude extract; concentration not given, corrected by standard peak, unit not given; reference: biotin control resin, higher = stronger binding).
`B1 (human SFPQ)`: “log2 fold change” 0.68 (CYB5R4 knockout human cells; PP4 interaction, 3xFLAG-PP4C IP-MS; concentration not given; reference: CYB5R4 KO over parental).
For `colistin`, the MIC was at most 0.5 µg/mL (Pseudomonas aeruginosa; clinical isolate RKI 48/09).
Under “log2 fold change”, `B2 (human PABP4)` is recorded as 0.86 (CYB5R4 knockout human cells; PP4 interaction, 3xFLAG-PP4C IP-MS; concentration not given; reference: CYB5R4 KO over parental).
With `CAGGUUUCC (ssRNA)` the Kd was 5.5 µM (U2AF2; sequencing of bound RNA; RNA; motif only).
For `YLEPIQLEY`, the GFP-positive cells was 0.506% (Jurkat expressing engineered TCR; NFAT-eGFP reporter, fluorescence microscopy; peptide; concentration not given, HLA-A*01:01 on EL4 cells).
For `TASPAKETSF`, the binding intensity was 0.677 (construct, MBP fusion, human SCRIB, PDZ 3-4; automated holdup; peptide, purified PDZ protein; concentration not given, unit not given; reference: biotin control resin, higher = stronger binding).
`human Ku80` — result for “log2 fold change”: -0.5 (PP6C (human); co-immunoprecipitation, IP-MS; CYB5R4 knockout cells; concentration not given; reference: CYB5R4 knockout over parental).
`KPGKGSETVV` has a binding intensity of 0.0542 (construct, MBP fusion, human SCRIB, PDZ 3-4; automated holdup; peptide, purified PDZ protein; concentration not given, unit not given; reference: biotin control resin, higher = stronger binding).
With `VVVGACGVGK` the remaining protein was 0.803 and 0.819 and 0.801 (HLA-A*11:01 peptide-β2M single-chain trimer; western blot, item: pMHC-I; peptide, 293T cells; 12 h, unit not given, added: 100 µg/mL cycloheximide; reference: time zero).

Excerpt of the above:
For `Peginesatide`, the phosphorylation level was 16.4 fold (UT7/EPO; tyrosine phosphorylation, LC-MS/MS phosphoproteomics, GluC, item: EZR tyrosine 499; 10 nM, 15 min, added: 10 U/mL EPO; reference: vehicle).
`human Ku80` — result for “log2 fold change”: -0.5 (PP6C (human); co-immunoprecipitation, IP-MS; CYB5R4 knockout cells; concentration not given; reference: CYB5R4 knockout over parental).
